Published values from different studies.
Numbers after ± are the reported error.
Neuromedin-U receptor 2: Neuromedin-U receptor 2 (Mus musculus, UniProt Q8BZ39)
GABA-A receptor; alpha-1/beta-2/gamma-2: GABA-A receptor; alpha-1/beta-2/gamma-2 (Rattus norvegicus, UniProt P18508+P62813+P63138)

O=C1Nc2c(ccc(Cl)c2Cl)C1=NO — EC50 (KCNN4/CALM1 (Homo sapiens, UniProt O15554+P0DP23); ion current, activator, whole-cell patch clamp; HEK293; together with: 250 nM free calcium): 74 nM
CCN(C(=O)C1CCN(S(=O)(=O)c2ccc3[nH]ncc3c2)CC1)[C@H](C)c1ccccc1 — EC50 (CHRM1 (Homo sapiens, UniProt P11229); calcium mobilization, positive allosteric modulator; CHO cells expressing CHRM1): 4800 nM
CCCCC[C@H](O)/C=C/[C@H]1[C@H](O)CC(=O)[C@@H]1C/C=C\CCCC(=O)O — EC50 (PTGER1 (Homo sapiens, UniProt P34995, C136A); IP1 accumulation, agonist; AD293; EP1 C136A mutant): 2.46 nM
CCCCCCCC/C=C\CCCCCCCC(=O)NCCc1ccc(O)c(O)c1 — EC50 (Trpv1 (Mus musculus, UniProt Q704Y3, Y555F); ion current, agonist, whole-cell patch clamp; 24 °C, Y555F, +80 mV): 650 ± 610 nM
CC(C)C[C@H](NC(=O)[C@H](Cc1ccccc1)NC(=O)[C@H](Cc1ccc(O)cc1)NC(=O)CNC(=O)[C@H](CCCNC(=N)N)NC(=O)[C@H](CO)NC(=O)[C@H](CCC(N)=O)NC(=O)[C@H](CO)NC(=O)[C@H](C)NC(=O)[C@H](Cc1ccccc1)NC(=O)[C@@H]1CCCN1C(=O)[C@H](CO)NC(=O)[C@H](CCC(N)=O)NC(=O)[C@H](Cc1ccccc1)NC(=O)[C@H](CCC(=O)O)NC(=O)[C@H](CCC(=O)O)NC(=O)[C@H](CC(=O)O)NC(=O)[C@@H](NC(=O)[C@H](CCCNC(=N)N)NC(=O)[C@@H](N)Cc1ccccc1)C(C)C)C(=O)N[C@@H](Cc1ccccc1)C(=O)N[C@@H](CCCNC(=N)N)C(=O)N1CCC[C@H]1C(=O)N[C@@H](CCCNC(=N)N)C(=O)N[C@@H](CC(N)=O)C(N)=O — EC50 (Neuromedin-U receptor 2; Gq signalling, agonist, IP-1 accumulation; average of runs): 0.57 nM
O=S(=O)(O)C1CCNCC1 — EC50 (GABA-A receptor; alpha-1/beta-2/gamma-2; chloride current, agonist, whole-cell patch clamp; HEK293 expressing GABAA; 30 s): 6200 nM
N[C@H](CNC(=O)c1cc(Br)c(-c2ccccc2F)s1)C(=O)O — EC50 (Glutamate NMDA receptor; Grin1/Grin2c (Rattus norvegicus, UniProt P35439+Q00961, Y692L); receptor activation, positive modulator; rat; together with: glutamate 300 µM): 123 nM
Nc1ncnc2c1ncn2[C@@H]1O[C@H](COP(=O)(O)OP(=O)(O)OC[C@H]2OC(O)[C@H](O)[C@@H]2O)[C@@H](O)[C@H]1O (some centres unmarked) — EC50 (trpm2 (Danio rerio, UniProt A0A0R4IMY7); channel activation, activator, inside-out patch clamp; together with: 125 µM Ca2+, 2.5 µM diC8-PIP2): 56 ± 4 nM
Cc1ccc2ccc3ccc(C)cc3c2c1 — EC50 (AHR (Homo sapiens, UniProt P35869); reporter gene, agonist, yeast LacZ reporter; Saccharomyces cerevisiae; 18 h, 30 °C; relative to: 50% of 100 µM phenanthrene activity): 6460 nM
CC(C)C[C@H](NC(=O)[C@H](Cc1ccccc1)NC(=O)[C@@H](N)Cc1ccc(O)cc1)C(=O)N[C@@H](Cc1ccccc1)C(=O)N[C@@H](CCCNC(=N)N)C(=O)N1CCC[C@H]1C(=O)N[C@@H](CCCNC(=N)N)C(=O)N[C@@H](CC(N)=O)C(N)=O — EC50 (Neuromedin-U receptor 2; β-arrestin recruitment, agonist): 8.3 nM
O=C(O)C1=CCNCC1 — EC50 (GABA-A receptor; alpha-1/beta-2/gamma-2; chloride current, agonist, whole-cell patch clamp; HEK293 expressing GABAA; 30 s): 9600 nM
